Values quoted from earlier work as cited in several papers.
Lines come from different studies, so protocols differ. Numbers after ± are the reported error.
CDK1: Cyclin-dependent kinase 1 (CDK1, Homo sapiens, UniProt P06493)

By UniProt entry, the sequences of proteins in these tests, tags left out. Residues count along the entry.
UniProt P06493, whole entry: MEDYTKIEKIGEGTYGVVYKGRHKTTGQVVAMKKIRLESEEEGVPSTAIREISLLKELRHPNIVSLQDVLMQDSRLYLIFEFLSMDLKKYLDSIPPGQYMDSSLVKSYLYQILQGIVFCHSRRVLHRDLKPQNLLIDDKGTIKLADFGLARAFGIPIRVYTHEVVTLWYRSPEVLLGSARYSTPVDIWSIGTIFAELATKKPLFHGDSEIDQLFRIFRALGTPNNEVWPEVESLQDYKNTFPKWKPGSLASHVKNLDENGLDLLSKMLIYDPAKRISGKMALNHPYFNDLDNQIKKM
UniProt P56450, whole entry: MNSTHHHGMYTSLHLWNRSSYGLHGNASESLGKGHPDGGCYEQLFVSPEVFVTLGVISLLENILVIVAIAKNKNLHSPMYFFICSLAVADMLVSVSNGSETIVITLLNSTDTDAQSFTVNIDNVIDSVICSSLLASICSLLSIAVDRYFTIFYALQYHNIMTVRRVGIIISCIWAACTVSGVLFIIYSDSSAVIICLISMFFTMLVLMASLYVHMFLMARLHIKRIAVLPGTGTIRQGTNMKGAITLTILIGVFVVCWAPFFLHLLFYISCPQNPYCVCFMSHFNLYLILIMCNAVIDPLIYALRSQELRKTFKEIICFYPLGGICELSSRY
UniProt P42260, 32-908 limits assumed: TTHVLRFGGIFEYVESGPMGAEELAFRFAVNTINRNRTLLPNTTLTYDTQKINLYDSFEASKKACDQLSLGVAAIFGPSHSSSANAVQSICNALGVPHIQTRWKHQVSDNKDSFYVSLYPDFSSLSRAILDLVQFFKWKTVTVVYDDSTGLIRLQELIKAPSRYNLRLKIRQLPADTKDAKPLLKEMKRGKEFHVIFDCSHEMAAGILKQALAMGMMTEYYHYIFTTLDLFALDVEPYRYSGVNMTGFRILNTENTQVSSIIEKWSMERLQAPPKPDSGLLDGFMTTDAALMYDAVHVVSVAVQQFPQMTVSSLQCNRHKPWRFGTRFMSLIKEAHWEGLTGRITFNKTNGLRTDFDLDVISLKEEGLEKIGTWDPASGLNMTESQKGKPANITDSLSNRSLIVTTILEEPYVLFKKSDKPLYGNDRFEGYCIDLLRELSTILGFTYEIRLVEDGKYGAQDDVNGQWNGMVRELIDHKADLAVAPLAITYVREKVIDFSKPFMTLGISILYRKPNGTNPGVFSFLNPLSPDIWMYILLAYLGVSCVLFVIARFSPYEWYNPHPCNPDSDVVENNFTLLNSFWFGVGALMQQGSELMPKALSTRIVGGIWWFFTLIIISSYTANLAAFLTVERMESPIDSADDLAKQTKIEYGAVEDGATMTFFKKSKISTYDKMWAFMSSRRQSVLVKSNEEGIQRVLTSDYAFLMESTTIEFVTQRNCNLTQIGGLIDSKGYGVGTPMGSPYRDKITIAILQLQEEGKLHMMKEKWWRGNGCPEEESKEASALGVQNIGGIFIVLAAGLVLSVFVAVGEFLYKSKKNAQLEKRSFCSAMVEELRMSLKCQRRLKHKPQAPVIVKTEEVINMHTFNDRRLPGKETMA
UniProt P00491, whole entry: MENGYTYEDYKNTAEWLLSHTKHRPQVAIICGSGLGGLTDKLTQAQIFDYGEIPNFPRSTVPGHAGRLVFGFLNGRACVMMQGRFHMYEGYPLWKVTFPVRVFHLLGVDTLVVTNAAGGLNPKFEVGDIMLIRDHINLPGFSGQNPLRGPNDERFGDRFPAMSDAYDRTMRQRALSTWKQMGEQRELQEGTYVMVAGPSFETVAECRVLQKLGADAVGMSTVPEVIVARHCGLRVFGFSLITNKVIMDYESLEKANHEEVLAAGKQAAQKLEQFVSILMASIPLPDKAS
UniProt O15392, whole entry: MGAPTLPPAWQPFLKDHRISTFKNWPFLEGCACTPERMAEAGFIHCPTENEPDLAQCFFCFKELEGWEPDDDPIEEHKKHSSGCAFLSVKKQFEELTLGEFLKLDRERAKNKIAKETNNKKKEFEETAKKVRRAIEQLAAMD
UniProt Q00961, 20-1237 limits assumed: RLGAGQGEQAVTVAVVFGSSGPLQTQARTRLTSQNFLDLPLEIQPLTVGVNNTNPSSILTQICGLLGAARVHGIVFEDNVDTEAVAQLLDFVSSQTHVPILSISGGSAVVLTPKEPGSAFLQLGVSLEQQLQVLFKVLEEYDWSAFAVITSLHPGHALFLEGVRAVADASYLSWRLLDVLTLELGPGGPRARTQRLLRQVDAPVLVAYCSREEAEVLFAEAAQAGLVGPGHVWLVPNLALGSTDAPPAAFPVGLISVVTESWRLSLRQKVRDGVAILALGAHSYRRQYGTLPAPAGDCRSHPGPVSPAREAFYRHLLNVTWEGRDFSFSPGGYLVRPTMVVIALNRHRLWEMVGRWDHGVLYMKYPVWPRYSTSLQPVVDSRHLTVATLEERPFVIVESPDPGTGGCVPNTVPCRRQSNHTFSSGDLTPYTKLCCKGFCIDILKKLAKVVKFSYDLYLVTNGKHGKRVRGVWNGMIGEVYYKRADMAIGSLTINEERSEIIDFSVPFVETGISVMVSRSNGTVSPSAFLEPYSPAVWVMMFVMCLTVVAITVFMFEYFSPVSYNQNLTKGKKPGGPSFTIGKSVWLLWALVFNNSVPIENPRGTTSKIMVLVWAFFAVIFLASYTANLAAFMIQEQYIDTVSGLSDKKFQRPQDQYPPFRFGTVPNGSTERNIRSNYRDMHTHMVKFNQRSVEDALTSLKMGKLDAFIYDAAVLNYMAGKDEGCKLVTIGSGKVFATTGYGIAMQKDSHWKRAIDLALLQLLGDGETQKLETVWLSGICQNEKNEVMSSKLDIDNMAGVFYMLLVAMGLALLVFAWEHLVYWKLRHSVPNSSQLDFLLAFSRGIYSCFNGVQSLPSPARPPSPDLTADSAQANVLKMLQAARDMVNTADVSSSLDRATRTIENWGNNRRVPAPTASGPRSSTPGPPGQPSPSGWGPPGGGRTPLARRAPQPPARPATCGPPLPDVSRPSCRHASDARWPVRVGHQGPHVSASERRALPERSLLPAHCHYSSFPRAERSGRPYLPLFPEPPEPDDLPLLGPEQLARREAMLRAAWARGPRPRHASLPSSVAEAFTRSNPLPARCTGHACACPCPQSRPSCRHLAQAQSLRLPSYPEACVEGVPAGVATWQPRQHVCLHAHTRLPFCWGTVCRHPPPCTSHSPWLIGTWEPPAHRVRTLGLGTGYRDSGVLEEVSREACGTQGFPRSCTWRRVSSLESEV
UniProt P10747, whole entry, looked up: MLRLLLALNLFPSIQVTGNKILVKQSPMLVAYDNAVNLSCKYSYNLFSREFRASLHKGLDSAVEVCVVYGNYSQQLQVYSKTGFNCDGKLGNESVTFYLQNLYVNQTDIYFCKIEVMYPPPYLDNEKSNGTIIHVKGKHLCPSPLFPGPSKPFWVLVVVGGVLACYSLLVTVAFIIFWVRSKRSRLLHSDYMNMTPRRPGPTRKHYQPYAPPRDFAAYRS
UniProt P42264, 32-919 limits assumed: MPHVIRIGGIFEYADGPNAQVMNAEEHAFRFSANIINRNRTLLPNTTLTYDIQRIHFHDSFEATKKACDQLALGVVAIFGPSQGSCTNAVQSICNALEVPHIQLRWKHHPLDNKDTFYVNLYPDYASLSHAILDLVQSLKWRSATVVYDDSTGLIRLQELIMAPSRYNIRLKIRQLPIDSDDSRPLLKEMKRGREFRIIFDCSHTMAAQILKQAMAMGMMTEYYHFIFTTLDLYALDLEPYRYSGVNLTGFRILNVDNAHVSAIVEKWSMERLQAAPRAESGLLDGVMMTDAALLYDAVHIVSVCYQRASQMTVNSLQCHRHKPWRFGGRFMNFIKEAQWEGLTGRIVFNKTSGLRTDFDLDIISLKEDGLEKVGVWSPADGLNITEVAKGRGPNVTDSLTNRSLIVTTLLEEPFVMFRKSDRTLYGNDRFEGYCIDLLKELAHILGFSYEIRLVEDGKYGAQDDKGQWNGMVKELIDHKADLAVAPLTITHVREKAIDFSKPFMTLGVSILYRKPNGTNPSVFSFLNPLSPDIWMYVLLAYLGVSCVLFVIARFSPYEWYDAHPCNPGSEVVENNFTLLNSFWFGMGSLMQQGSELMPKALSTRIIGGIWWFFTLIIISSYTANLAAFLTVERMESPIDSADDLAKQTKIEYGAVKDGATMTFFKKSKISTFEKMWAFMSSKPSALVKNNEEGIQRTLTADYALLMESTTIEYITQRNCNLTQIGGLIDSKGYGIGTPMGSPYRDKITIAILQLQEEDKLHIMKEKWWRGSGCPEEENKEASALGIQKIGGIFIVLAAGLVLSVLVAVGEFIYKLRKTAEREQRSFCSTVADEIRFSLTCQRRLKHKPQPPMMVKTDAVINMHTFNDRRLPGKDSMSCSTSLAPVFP
UniProt P20248, whole entry partner: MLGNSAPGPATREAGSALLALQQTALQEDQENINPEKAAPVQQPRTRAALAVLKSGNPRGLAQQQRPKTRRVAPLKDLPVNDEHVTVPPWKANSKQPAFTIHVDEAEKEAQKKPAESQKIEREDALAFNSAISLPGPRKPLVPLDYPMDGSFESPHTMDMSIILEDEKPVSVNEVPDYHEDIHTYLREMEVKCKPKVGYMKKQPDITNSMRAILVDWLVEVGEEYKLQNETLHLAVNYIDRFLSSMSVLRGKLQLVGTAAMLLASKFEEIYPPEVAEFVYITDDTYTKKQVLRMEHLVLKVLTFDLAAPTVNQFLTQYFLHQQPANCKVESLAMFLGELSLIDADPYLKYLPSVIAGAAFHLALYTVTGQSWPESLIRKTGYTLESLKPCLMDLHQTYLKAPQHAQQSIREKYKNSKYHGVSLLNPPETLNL

| SMILES | target | test | setting | endpoint | result |
| --- | --- | --- | --- | --- | --- |
| C[C@@H]1NC(=O)[C@H](CC(N)=O)NC(=O)[C@H](Cc2c[nH]c3ccccc23)NC(=O)[C@H](CCCNC(=N)N)NC(=O)[C@@H](Cc2ccccc2)NC(=O)[C@H](Cc2c[nH]cn2)NC(=O)[C@@H](NC(=O)[C@@H](N)Cc2ccc(O)cc2)CSSC[C@@H](C(=O)N[C@@H](Cc2ccc(O)cc2)C(N)=O)NC(=O)[C@H](Cc2ccccc2)NC1=O | Melanocortin receptor 4 (Mus musculus, UniProt P56450) | cAMP, agonist | – | EC50 | 0.0003 µM |
| CCC[C@@H]1CN[C@H](C(=O)O)[C@H]1c1cccc(C(=O)O)c1 | Grik2 (Rattus norvegicus, UniProt P42260) | binding, radioligand binding | homomeric receptor, added: [3H]kainate | Ki | 81 µM |
| C[C@H]1N[C@@H](c2c[nH]c3c(=O)[nH]cnc23)[C@H](O)[C@@H]1O | PNP (Homo sapiens, UniProt P00491) | binding | pH 7.4, 25 °C, first subunit, added: phosphate 50 mM | Kd | 0.025 ± 0.001 µM |
| COc1cc2[nH]c3c(-c4c(C5CC5)n[nH]c4C)nccc3c2cc1-c1c(C)noc1C | Bromodomain-containing protein 4, BD2 (BRD4, Homo sapiens, UniProt O60885) | binding | – | Kd | 0.67 µM |
| COc1cc(O)cc2ccc3cc(O)ccc3c12 | CDK1 | kinase activity, inhibitor | – | IC50 | 4.1 µM |
| C[C@H](N)C(=O)N[C@@H](CCCNC(=N)N)C(=O)N[C@H](C(=O)N[C@@H](CCCCN)C(=O)N[C@@H](CCC(N)=O)C(=O)N[C@H](C(=O)N[C@@H](C)C(=O)N[C@@H](CCCNC(=N)N)C(=O)N[C@@H](CCCCN)C(=O)N[C@@H](CO)C(=O)N[C@H](C(=O)NCC(=O)O)[C@@H](C)O)[C@@H](C)O)[C@@H](C)O | BIRC5 (Homo sapiens, UniProt O15392) | ITC | pH 7.2, 25 °C | Kd | 9.37 ± 0.31 µM |
| CNc1nc(C)c(-c2nc(Nc3ccc(N4CCC(N)CC4)cn3)ncc2F)s1 | CDK1 | kinase activity, inhibitor | – | IC50 | 2.37 µM |
| O=C(O)c1cc([C@H]2CCN[C@@H]2C(=O)O)ccc1Cl | Glutamate receptor ionotropic, NMDA 2C, with GluN1 (Rattus norvegicus, UniProt Q00961) | ion current, antagonist, two-electrode voltage clamp | GluN1/GluN2C | IC50 | 24 µM |
| O=C1N=C(Nc2ccccc2)S/C1=C\c1ccc2ncccc2c1 | CDK1 | kinase activity, inhibitor | – | IC50 | 2 µM |
| COc1ccc(Nc2nnc(NCC(=O)Nc3c(F)cccc3F)s2)cc1 | CD28 (Homo sapiens, UniProt P10747) | binding, microscale thermophoresis | – | Kd | 29.6 ± 12.7 µM |
| COc1c(O)cc2ccc3cc(O)ccc3c2c1OC | CDK1 | kinase activity, inhibitor | – | IC50 | 1.2 µM |
| O=C(O)c1cc(O)cc([C@H]2CCN[C@@H]2C(=O)O)c1 | Glutamate receptor ionotropic, kainate 3 (Rattus norvegicus, UniProt P42264) | binding, radioligand binding | homomeric receptor, added: [3H]kainate | Ki | 2.1 µM |
